Published values gathered from unrelated publications.
A part holds a random share of what one study measured.

Set 1
Target: RING finger protein unkempt homolog, zinc fingers 1-6, SBP tag (UNK, Homo sapiens, UniProt Q9C0B0, residues 30-357)
UniProt Q9C0B0, sequence (30-357, looked up): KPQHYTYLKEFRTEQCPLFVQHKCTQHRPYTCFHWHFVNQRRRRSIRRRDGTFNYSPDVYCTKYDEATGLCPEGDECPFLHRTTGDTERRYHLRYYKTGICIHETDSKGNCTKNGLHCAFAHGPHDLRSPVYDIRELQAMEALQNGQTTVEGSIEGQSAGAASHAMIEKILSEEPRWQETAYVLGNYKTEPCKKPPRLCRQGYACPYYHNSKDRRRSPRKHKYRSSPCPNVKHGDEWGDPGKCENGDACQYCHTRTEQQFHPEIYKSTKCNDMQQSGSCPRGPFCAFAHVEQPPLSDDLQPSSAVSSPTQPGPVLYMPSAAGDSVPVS
Technique: RNA Bind-n-Seq
Molecule type: RNA
Sample: in vitro
Tested at: 100 nM
Setting: RNA with constant flanks, vertebrate orthologous sites, ends assumed
Reference: input RNA pool
Direction: higher = stronger binding
All sequences stand within: GGGAGUUCUACAGUCCGACGAUC … CAACAGAGGAUUGAGCAUCA
| Strand | bound/input enrichment |
| --- | --- |
| AAAUUUAUUUCAUGCCCUGGACUCCCUACCGUACUGAUACUUUGAUUGAGUAUGCUUCUUUAGAAGAUUUCCAAAACAGUCGCCAAACAACAACAUAUAAACUUCCAAAUCGAGUAGAUG | 0.778 ratio |
| CCCCGAUUUUAGAUGUGAUAUUUAGGCUUUCAUUCCAGUUUGUUUUGUUUUUUUUUUGUUUAGAUACCAAUCUUUUAAAUUCUUGCAUUUUAGUAAGAAAGCUAUCUUUUUAUGGAUGUU | 1.83 ratio |
| UCAUCUCAUUUUAUAUGUCCAAAAAAGGUUUUGAAUUUUUAAACACUUGCUAGUUUUAGUUAGCUCUGCCCUCAUGAAGUAUUACUAUAAUUCAUCACAAACAGAUAUCUGUCUGAAUUA | 0.658 ratio |
| AUGUCCUGUUACCCGGUGGUAUUUUAAAUAUCCACAGUACUCACUUUUUCCAAACGAUCCUAAUAAUUGCCUAGAAAUAUCUUUUUCUUACCUGUUAUUUAUCAAUUUUUCCCAGUAUUU | 0.453 ratio |
| GUCCCUCAGUGACAGCACGCCGUCCGUAGCAGAUUCCCACUCUAGCCACUUUUCUGAAUUUAGUUGCUCUGACCUAGAAAGCAUGAAAACUUCUUGUAGUCAUGGUUCCACUGAUUAUCA | 1.83 ratio |
| AAAUUUACUUCAUGCCUUGGACUCCAUAUAGGACAGACACUCUGAUCGAGUACUCCUCCCUGGAUGACUUCCAAAACGGCCGGCAAACCAUCACCUACAAGCUUCCUCACCGGGUAGAUG | 0.512 ratio |
| UUUGAGGAGGGAGAAAGACAAGUUUCUUCUCUCUUUAAAGUAAAACUGAAAUAGUUUUCUUUUAUUUCUGUCUUGGAAAACAAAGAUGGCCUAUUCUCUUAACUGUGUUACAAUACCAUC | 0.235 ratio |
| UUUACAAUCUUCUUCUUAAACAUAUUUUCAAACAAUAGGAAACUUUUUUUAUUUUUACAGUUUAGUAUCUGGUUUCUACAUGAAGACUAAACUCACGCUUAUAGCUAAAUGUGGUCUCUG | 1.18 ratio |

Set 2
Target: Histone acetyltransferase KAT6A, both winged helices, GST fusion (KAT6A, Homo sapiens, UniProt Q92794, residues 1-181)
Technique: protein binding microarray
Molecule type: double-stranded DNA, one strand shown
Sample: in vitro
Tested at: not given
Setting: 8-mer, flanks averaged, mean of 2 arrays, mostly near background
Reference: not given
Direction: higher = stronger binding
Construct (chain): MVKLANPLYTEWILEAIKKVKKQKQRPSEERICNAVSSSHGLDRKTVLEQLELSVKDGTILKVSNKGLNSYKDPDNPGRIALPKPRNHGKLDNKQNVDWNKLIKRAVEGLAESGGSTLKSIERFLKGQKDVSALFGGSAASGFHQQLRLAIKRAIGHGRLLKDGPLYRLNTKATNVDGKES
| Strand | E-score |
| --- | --- |
| CGGAGCCG | 0.304 |
| CATTTAAG | -0.186 |
| ACGTCGTG | -0.064 |
| CGGTTAGA | 0.0642 |
| GAAACATA | 0.107 |
| ATTCGGTC | 0.0743 |
| GGTTTGGA | -0.162 |
| AGTAAAAC | -0.0907 |
| GCGGACTA | 0.198 |
| AGGCTATG | -0.0596 |
| CCCGCGAG | 0.295 |
| ACGTTATA | -0.0199 |
| AGTCACCA | -0.177 |
| ACTCCACA | -0.232 |
| GTCCGCAC | 0.195 |
| AGCCTAGA | -0.073 |

Set 3
Target: Interferon regulatory factor 5, full length, phosphomimetic (IRF5, Homo sapiens, UniProt Q13568-2, residues 1-514, K96S/S451D/S453D/S456D/S462D)
Technique: protein-binding microarray
Molecule type: double-stranded DNA, one strand shown
Sample: in vitro
Tested at: 250 nM
Setting: 60-bp whole probe
With: salmon DNA 0.4 mg/ml
Reference: random background probes
Direction: higher = stronger binding
All sequences stand within: GCCTAGCAC … GTCTTGATTCGCTTGACGCTGCTG
| Strand | log fluorescence [z-score] |
| --- | --- |
| GGCGGTATCGGTCTCGGGACGTGCTAG | 5.63 |
| TTAGATCTCAGTTTCCATTAGTGCTAG | 1.13 |
| GGCGGTTTCCTTCTCCTGACGTGCTAG | 0.716 |
| GACGGTATCCTTTTCCTGAGGTGCTAG | 0.268 |
| TTAGGTTTCGGGACTGGGATAGTGCTA | 6.39 |
| TTAGATTTCGGGTTTCGATTAGTGCTA | 8.9 |
| GATGAAGATGTAGAACTTTTGTGCTAG | 0.16 |
| CACTCTCAGAATCTCTCATGGTGCTAG | 0.518 |
| TCAACTTTTTTTTTTCCACTGTGCTAG | 1.05 |
| TCATTTTATGCTTTCTTACTGTGCTAG | 1.13 |
| GACGGTATTCTTTTCCTGACGTGCTAG | 0.257 |
| TTAGATTTCAGACTAGATTAGTGCTAG | 0.412 |
| TTAGATAACAGTCTCGATTAGTGCTAG | 1.1 |
| TCAGGCTTAGTTTGTCAAACTGTGCTA | -0.26 |
| TTAGGACTGGGTTATCGGTTAGTGCTA | 1.99 |
| TTGGGACTGGACTTTCGGTTAGTGCTA | 8.66 |
| TTCGGTATCGGGACTGGGTTAGTGCTA | 2.79 |
| GACGATTTCAGGATCGAGACGTGCTAG | 0.459 |
| GACGGTTTCGGTTCCCGGACGTGCTAG | 9.94 |

Set 4
Target: RNA binding protein fox-1 homolog 2, RRM domain, GST-SBP tag (RBFOX2, Homo sapiens, UniProt O43251-10, residues 100-194)
Technique: RNA Bind-n-Seq
Molecule type: RNA
Sample: in vitro
Tested at: 365 nM
Setting: natural RNA segment, single round, ends assumed
Reference: no-protein control
Direction: higher = stronger binding
All sequences stand within: GGGAGUUCUACAGUCCGACGAUC … UGGAAUUCUCGGGUGCCAA
Construct (chain): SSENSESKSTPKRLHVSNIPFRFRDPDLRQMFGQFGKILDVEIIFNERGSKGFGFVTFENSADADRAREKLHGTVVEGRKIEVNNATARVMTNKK
| Strand | RBNS enrichment (R) |
| --- | --- |
| UCUGCCCAGGAGAAAAGGAACUAUACAGCAUAGUGGAGUUUUGUGUACUAAAAUUGCUAUCUACUGGUCCUUUGGAAUUGAAGUAGUAGAAACCUAAAGGCUUGGCGUCA | 0.438 |
| UGUGUGGAAGAAGCCAUUUUGUACUGCUUUAAAGUUAGACUAAUAUUCUCAGCACGGGUGUAUGGGGACCUCAUUACCUAUUUUUUUCAUCAUUUACCCUAGGUAAGAAC | 0.573 |
| CUCCUCCUUUACAAGAGCUUUCCUCUCCUCUCUCUUGCUCUCAGAGACCUAUAAAUCCAACCAGUUACCCUGCAAGUCAGCCCCAUCUGCUGUUCCUUGGUCUCUAAUCA | 0.817 |
| AAAGGCCGACUGUACCCAUGAGAGGUGCCUCACAGCAGGAGACUAAGAUCUGUUGAUGCUCUGAGGAAAACUCCCCCAUGACCAGGGUGGAUUCUGGCUUCAAGGCUGGA | 0.252 |
| UGGGCAGGAGACAGACUGGGGACUGAGCUGGGAUAUGGGGACUAGCAUCAAAGCUUUCUCCUGACAUCUCUUUCCAAGAGUCGGGGUGGCAUCUGUACCCCACCUCACCC | 0.539 |
| CCUAAAUUAAAAAUGCCAAAUAUAUCAUGCCUCCAUCCUUUAUACUUCUAAAAUAAAAUCUCUAGUCCAGACAUAUUUGACAGUAUUGUUUGUCUGAAUGUGAAAUAUCC | 2.1 |
| CCCCCUGUCUCUCCUCAGCAGUCUGAGUGCAACCCCGUCGGUGCUCUGCAGGAGCUGGUGGUGCAAAAAGGCUGGCGUUUGCCAGAGUACAUGGUGACCCAAGAGUCUGG | 0.672 |
| GGGGUACCCCCUUUGCACUUUGACCCUCCUGAUGACGUGGGGCCCAGCACAGGGACCAAGAAGGCUGGUGGAAGUGCACUCAGACCCCAGGUGGGAGGGCUCUGGGAGUG | 0.496 |

For quick reference, copied from above (set 1):
| Strand | bound/input enrichment |
| --- | --- |
| UUUACAAUCUUCUUCUUAAACAUAUUUUCAAACAAUAGGAAACUUUUUUUAUUUUUACAGUUUAGUAUCUGGUUUCUACAUGAAGACUAAACUCACGCUUAUAGCUAAAUGUGGUCUCUG | 1.18 ratio |
| UUUGAGGAGGGAGAAAGACAAGUUUCUUCUCUCUUUAAAGUAAAACUGAAAUAGUUUUCUUUUAUUUCUGUCUUGGAAAACAAAGAUGGCCUAUUCUCUUAACUGUGUUACAAUACCAUC | 0.235 ratio |
| GUCCCUCAGUGACAGCACGCCGUCCGUAGCAGAUUCCCACUCUAGCCACUUUUCUGAAUUUAGUUGCUCUGACCUAGAAAGCAUGAAAACUUCUUGUAGUCAUGGUUCCACUGAUUAUCA | 1.83 ratio |
| CCCCGAUUUUAGAUGUGAUAUUUAGGCUUUCAUUCCAGUUUGUUUUGUUUUUUUUUUGUUUAGAUACCAAUCUUUUAAAUUCUUGCAUUUUAGUAAGAAAGCUAUCUUUUUAUGGAUGUU | 1.83 ratio |
| UCAUCUCAUUUUAUAUGUCCAAAAAAGGUUUUGAAUUUUUAAACACUUGCUAGUUUUAGUUAGCUCUGCCCUCAUGAAGUAUUACUAUAAUUCAUCACAAACAGAUAUCUGUCUGAAUUA | 0.658 ratio |
| AAAUUUAUUUCAUGCCCUGGACUCCCUACCGUACUGAUACUUUGAUUGAGUAUGCUUCUUUAGAAGAUUUCCAAAACAGUCGCCAAACAACAACAUAUAAACUUCCAAAUCGAGUAGAUG | 0.778 ratio |
| AAAUUUACUUCAUGCCUUGGACUCCAUAUAGGACAGACACUCUGAUCGAGUACUCCUCCCUGGAUGACUUCCAAAACGGCCGGCAAACCAUCACCUACAAGCUUCCUCACCGGGUAGAUG | 0.512 ratio |
